Results pooled from the literature.
A part holds a random share of what one study measured. Positions count from the first letter of the parent shown.

Sample 1
Target: CCNE1, cyclin fold, Cln2 fusion (human)
Method: yeast growth competition, sequencing
Medium: yeast
Setting: weak parent motif
Baseline: not given
Direction: higher = stronger binding
Starting sequence: RB1 docking peptide (human); PKPLKKLRFDIEG
Variant | normalised enrichment score
E12D | -0.153
D10S | -1.04
P1R | 0.243
D10P | 0.54
P1V | 0.178
R8H | 0.741
F9Q | 0.827
K2T | -0.284
K5G | 0.4
G13E | -0.289
E12Y | 1.08
F9W | 0.15
D10M | 1.49
D10W | 0.595
D10T | -0.192
K6D | 0.427
I11W | -0.0266
I11K | 0.326
E12T | 0.831
L4R | 0.215

Sample 2
Target: Histone acetyltransferase KAT6A, winged helix 1, GST fusion (KAT6A, Homo sapiens, UniProt Q92794, residues 1-85)
Method: protein binding microarray
Molecule type: double-stranded DNA, one strand shown
Medium: in vitro
Concentration: not given
Setting: 8-mer, flanks averaged, mean of 2 arrays, mostly near background
Baseline: not given
Direction: higher = stronger binding
Construct (chain): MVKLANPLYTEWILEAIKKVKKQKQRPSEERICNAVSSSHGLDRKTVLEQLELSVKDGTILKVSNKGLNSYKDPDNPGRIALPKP
Sequence | E-score
CTGAGCGC | 0.316
CATGACGA | -0.0415
CTGTAGTA | -0.135
TTATCAAA | -0.133
CGCTTTCC | 0.29
GAGAGAGA | -0.156
GGGGGAAC | 0.0578
AAACCACC | -0.0464
CAGTCCGC | 0.17
CAAGGCCG | 0.179
CAAGACAA | -0.142
CAAGGCTG | -0.243
AAAACGCA | 0.0402
AGGTTTAT | -0.0221
ACCGCGGT | 0.373
AAATGAAC | -0.177
AGTTCTAT | -0.1

Sample 3
Target: Centromere-binding protein 1, full length, His-tagged (CBF1, Saccharomyces cerevisiae, UniProt P17106, residues 1-351)
Sequence of UniProt P17106 (whole entry, looked up): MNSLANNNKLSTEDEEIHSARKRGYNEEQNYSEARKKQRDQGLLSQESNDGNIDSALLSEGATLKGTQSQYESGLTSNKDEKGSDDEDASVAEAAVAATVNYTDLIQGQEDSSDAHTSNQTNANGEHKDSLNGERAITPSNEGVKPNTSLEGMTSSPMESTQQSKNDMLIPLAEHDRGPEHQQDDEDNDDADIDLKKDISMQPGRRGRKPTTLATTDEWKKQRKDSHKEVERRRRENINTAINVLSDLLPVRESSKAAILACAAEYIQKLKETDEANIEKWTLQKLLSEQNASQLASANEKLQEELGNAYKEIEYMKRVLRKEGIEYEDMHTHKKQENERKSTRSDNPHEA
Method: competition protein-binding microarray
Molecule type: double-stranded DNA, one strand shown
Medium: in vitro
Concentration: 2 µM
Setting: whole 60-bp probe, lowest competitor level
With: Pho4 competitor, 0.05 µM
Direction: higher = stronger binding
Sequence | fluorescence intensity [a.u.]
AAATTACTAAGTTTTCACGTGTGATACCCCGTATGAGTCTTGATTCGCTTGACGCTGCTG | 730
CGGGGTTAAGTTTGTCACCACACTTGCTTGCAGCAGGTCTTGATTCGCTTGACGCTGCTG | 82
CTTCTGTAAATTTGGAAAGTGGGTGGACGCGCCCCGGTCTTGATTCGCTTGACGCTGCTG | 69.2
TCATGATTGTCTTGATGTGCTTTGCCGGGCTATACAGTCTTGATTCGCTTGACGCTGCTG | 76
AGGCCACCGGGAAGTCACGTGGCCGGCTGCTGCCTCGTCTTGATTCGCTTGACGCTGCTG | 9340
TGCGCGTTTTTCTGGGACGTGCTAACAAACGAGAAAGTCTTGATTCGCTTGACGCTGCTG | 81.5
GTCTTGTCTCATTGCAGTGTGGGTGTCCCCACTTCAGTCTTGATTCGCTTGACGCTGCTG | 74.6
AAGCTGAAAAGGCTAAACGTGCCGAGTCCAGCCAAAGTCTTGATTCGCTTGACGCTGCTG | 71.8
GTACTTTTATAAACACACGTGGAGGAACTTTGGTATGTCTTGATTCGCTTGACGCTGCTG | 780
GAAAATCATCCATTACACGTGTTTTCCTCTTTGATTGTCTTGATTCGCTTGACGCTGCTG | 1170
ATTTTTATAATATCCAATAGAGTAGAGTTGTTACATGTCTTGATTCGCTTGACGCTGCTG | 69.6
CGTCCTAGTGATTGTGGCGTGGGTGCCATGAGGAAGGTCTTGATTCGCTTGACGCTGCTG | 78.3
GCTATTGGCGCATTCAATGTGTCGCAAATGGGCCCAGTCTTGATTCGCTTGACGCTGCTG | 68.6
ATCGAGGGAAAAAAAGTTGTGACGGAGGGGAAGGTTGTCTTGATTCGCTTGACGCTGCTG | 67.6
CGTCCTAGTGATTGGGGTGTGGGTGCCATGAGGAAGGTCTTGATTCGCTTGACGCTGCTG | 80.7
AATCCAAGTTTCGGCCACGATGGCAGCAGCCTATTGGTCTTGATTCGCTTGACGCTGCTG | 58.9

Sample 4
Target: RNA binding protein fox-1 homolog 2, RRM domain, GST-SBP tag (RBFOX2, Homo sapiens, UniProt O43251-10, residues 100-194)
Method: RNA Bind-n-Seq
Molecule type: RNA
Medium: in vitro
Concentration: 365 nM
Setting: natural RNA segment, single round, ends assumed
Baseline: no-protein control
Direction: higher = stronger binding
Residues (chain): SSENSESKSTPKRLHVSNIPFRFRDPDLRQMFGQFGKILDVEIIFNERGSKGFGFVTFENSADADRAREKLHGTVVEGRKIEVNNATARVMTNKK
Sequence | RBNS enrichment (R)
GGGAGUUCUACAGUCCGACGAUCUUCCAAUGCCUGGAGGGCCUCCACUUUGUGGCCAGCCUGUGGUGGUGGCUCUGAGGCCUAGGCAACGAGCGACAGGGCUGCCAGUUGCCCCUGGGUUCCUUUGUGCUGCUUGGAAUUCUCGGGUGCCAA | 0.603
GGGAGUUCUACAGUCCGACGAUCGAAAAGCCUUCUUCCUUUGCUUCAGGCAGCUGUCCCCUUCUCUUCCUUGGUGAUCCUGAGUGGGUCACUUAAGGAAAAAGUAUCAGAUUCUCACUCCAUGACCUGAUUUUUGGAAUUCUCGGGUGCCAA | 0.357
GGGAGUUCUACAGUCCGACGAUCAGAUACAAGCUGCAGAGAAAAGUAAACUCUGCAAAGAACACUGGUAAUAAUUGUUCUGCAAAGGUUAAGAAAGCCACUGAGUCACAGUCUUCAUGGACUUUUGGGGUUUCUGGAAUUCUCGGGUGCCAA | 0.573
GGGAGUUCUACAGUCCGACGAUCAGUCAGCUGUCCUUCACCCUGGGAAAGUCCAUGCCAGCUGUGGACUGCUGGGAGCCAUGUUUGUCACCUUAGUAGAAUGCACCAAUGUUCCCUUCUGCAUCUCUGGCCCUUGGAAUUCUCGGGUGCCAA | 2.64
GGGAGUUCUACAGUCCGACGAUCAUCCUCACUUUGGCAGUGCUUCCUCUCCUGUCAAUUCCAGGCUCUUUCCAUAACCACAAGCCUGAGGCUGCAGCCUUUUAUUUAUGUUUUCCCUUUGGCUGUGACUGGGUUGGAAUUCUCGGGUGCCAA | 0.882
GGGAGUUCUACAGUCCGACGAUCGGGAAAAAAAAGUUUGAUCUUCUUUUCCAGUAGAGAAUAGUUUGUGAAAUGAUAAGGGCAUUCUAUCUGCUUGCUGUGACCAGCGUGUGCACACAAACCUUAACAAGACUUGGAAUUCUCGGGUGCCAA | 0.35
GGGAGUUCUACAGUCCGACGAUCCAUGAUUUCACAAAUAUUAAAAUGUCUUUUAAAAAGUAUUGCCAAACAGUAAUGUUGAUUUCUAGUUAUUUAUUCUGGGAAUGUAUAGUAUUUGAAAACAGAAAUUGGUAUGGAAUUCUCGGGUGCCAA | 0.445
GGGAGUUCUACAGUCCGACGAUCAGCUCAGUACAAAUUAAUUUAAGUAAAAAACGUUUUAGAAUUUCAAAUAUCCUAAAAUAGGAAAUACUUGAACGUUUUAAUGAGAAAUUUCUAUGGUUGAAAUUCAUAGCUGGAAUUCUCGGGUGCCAA | 0.533
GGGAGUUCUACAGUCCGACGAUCCAGUGUGCCCAGCAGUUUCAGACCUGACUCUGGAGGGAAUUUGGAGACAGUGUAGACAGCAGCUCUGCUCUGUAUUCUUUUUGACAAAACCAGAACAGUAGAAGUAGCCAUGGAAUUCUCGGGUGCCAA | 0.281
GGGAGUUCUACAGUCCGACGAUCCCGGAGGGAAGAGAACAUAGUGAAGAUUCCCGCCUUUGGGGAGGUCUGGACCACCCAGGGCCUCCACUGCCACCUUGGCUGGCAAGGGAGAAAUGUGUUGUGUUGUCUUAUGGAAUUCUCGGGUGCCAA | 0.711
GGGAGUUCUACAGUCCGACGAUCAGAUAUUUGGGGGUUAUUCGGGUUAUGGCCCAUUUAUUUCCCUCUUCCCCCUGAAUUGACCAGUAGCAGCUCCAGCCCCAUUUCACAAAAGUGAGUUUGGCCAGGAGGAAUGGAAUUCUCGGGUGCCAA | 0.317
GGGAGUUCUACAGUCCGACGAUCAGCCAGGAUGCUCAGCAUUGGAAGACUGGUGUGUGAUGGCUGCUACCACCUCUCCCUGGACAGCAGCUAAGAGAAGACAGCAUCCCACGGACACAAGUAGAAAAAAGGAAUGGAAUUCUCGGGUGCCAA | 1.81

Repeated from above (sample 1):
Variant | normalised enrichment score
D10S | -1.04
P1R | 0.243
D10P | 0.54
P1V | 0.178
R8H | 0.741
F9Q | 0.827
K2T | -0.284
